# Assay results pooled from the literature.
# A part holds a random share of what one study measured. Changes are numbered by the printed parent chain.

# Set 1
# Target: RNA binding protein fox-1 homolog 2, RRM domain, GST-SBP tag (RBFOX2, Homo sapiens, UniProt O43251-10, residues 100-194)
# Method: RNA Bind-n-Seq
# Form: RNA
# Matrix: in vitro
# Concentration: 365 nM
# Notes: natural RNA segment, single round, ends assumed
# Reference: no-protein control
# Reading: higher = stronger binding
# Constant ends, left off below: GGGAGUUCUACAGUCCGACGAUC … UGGAAUUCUCGGGUGCCAA
# Target sequence (chain): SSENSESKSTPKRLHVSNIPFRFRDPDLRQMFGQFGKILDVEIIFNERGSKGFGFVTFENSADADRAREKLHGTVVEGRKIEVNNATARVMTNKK
Strand,RBNS enrichment (R)
UUUCUUGUGAUUUUUCUAUUGUGUAAUUCUUGGUGGGCUCUGUAGUUUAAUAAUAAGAAAAAGGCCAUUUCAUUUUAAAUUGUGACCUAUAAUUCUUUGUCUUGGGUUGG,1.12
UGAAGAGGACAAAUAGUUUAUUUAAAGCAUUUGUUCCAAUAAAAUAAAUAGAGGGAAACUUGGAUGCUAAAAUUACAUGAAUAGGAAUCUUCCUGGCACUUAGUGUUUCU,0.359
UAUUUCUUCUGACAUGGAGUGAACAUCAAUAGGAAUACUUUCAAAGAAAAUGAAAACACAGAAGCAAAGAGAAAUGUGGCACUUCACAUUUUAAACUACAGAUGGACUUG,0.518
ACAUUCACUACAUAUUUAAUCAUGCUUAAAAUGUUUGUAUUUACUGCCAUGCAAUUGAUAUAGUAAAUCGACUAGAAAAUUAGUAUGCCACUUAAUUAAGAUAAAAAUGC,0.604
UUCGACGCCAGACUAAACAGCUCCGGUGGGUUAAUGAGGAAGAACACAAAACUGACACCCCAUCUGGGCUGCGCUCCCCGGGGGGCCUGCAGACCCCAGGACUGCUGGCA,2.81
CAUCCCGUCUGCCUGCCAUGGGACGGCUCCUCUGAGUGUUCCCUGGCCCCACGUGUGUGGUGUUUGUGUGUCUGUGCCUGGCCAAGGGAGGUGCCAACACUGGGCUUGCC,1.03
GAGAGCAUGCGCAGAUGGGAAAGGCCCCGCCCCCCGCACAGGCGAUCACCCUCAUCUUCUUGGUUUGAAGCUUUAUUCAUGUCUCACGUAUCCUGUAGCCAUUUUAUUUU,9.44
ACCCAGUGAGCCGAGAGGCCCUCUGGGCUCCACUUAUGCAUAUGCACCAAAAAAAAAAAAAAAAAAAAAAGGCUUCUUUAGACCCAGAGCCCUUUAAGAUGAUAAAGGAC,1.02

# Set 2
# Target: Histone acetyltransferase KAT6A, winged helix 1, GST fusion (KAT6A, Homo sapiens, UniProt Q92794, residues 1-85)
# Method: protein binding microarray
# Form: double-stranded DNA, one strand shown
# Matrix: in vitro
# Concentration: not given
# Notes: 8-mer, flanks averaged, mean of 2 arrays, mostly near background
# Reference: not given
# Reading: higher = stronger binding
# Construct (chain): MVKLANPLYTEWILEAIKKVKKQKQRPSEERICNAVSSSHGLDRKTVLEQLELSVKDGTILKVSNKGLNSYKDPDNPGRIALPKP
Strand,E-score
CAGCGGGA,0.316
AATGACCC,0.0474
GAACCGCC,0.343
ACTACAAC,-0.0344
GAATAGAA,-0.239
AACGCCCT,0.0141
CCCTTACC,0.0966
ATTCTGGA,-0.201
AGTCTGGC,-0.219
CGGAGGAA,0.0128
ACTGGGTG,-0.219
TAAACCTA,-0.082
CAACCCGA,0.135
CGTTAGCA,0.0901
AGCAAACA,-0.144
CCCTATTA,-0.15
TTGGGAAA,-0.235
CGAAAGGC,0.197
GACAGAAC,-0.0263
ATGGCTAA,-0.17
GCCACTCA,-0.0519
AATGATGG,-0.0634
AAGGGGGG,-0.18

# Set 3
# Target: CREBZF, bZIP domain (human)
# Method: DHFR protein complementation
# Matrix: yeast
# Notes: single substitutions, most at no-binding floor
# Reference: wild-type JUN-FOS pair
# Reading: higher = stronger binding
# Starting sequence: JUN, bZIP domain (human); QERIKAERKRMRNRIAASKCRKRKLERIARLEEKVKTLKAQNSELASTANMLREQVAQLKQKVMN; partner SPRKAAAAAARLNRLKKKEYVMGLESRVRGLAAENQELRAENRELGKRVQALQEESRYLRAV
Variant,binding fitness
E44F,-1.47 natural log
M51G,-1.44 natural log
R30T,-1.5 natural log
V56H,-1.53 natural log
V35W,-1.53 natural log
E44N,-1.51 natural log
R53H,-1.49 natural log
L31N,-1.62 natural log
L59W,-1.07 natural log
K39E,-1.49 natural log
E44G,-1.47 natural log
V35S,-1.53 natural log
K36S,-1.6 natural log
K34S,-1.35 natural log
L45Y,-1.35 natural log
K36D,-1.13 natural log
L52M,-1.56 natural log
L45M,-1.51 natural log
L38R,-1.5 natural log
E54D,-1.42 natural log
S43V,-1.5 natural log
A40G,-1.46 natural log

# Set 4
# Target: Centromere-binding protein 1, full length, His-tagged (CBF1, Saccharomyces cerevisiae, UniProt P17106, residues 1-351)
# UniProt P17106, sequence (whole entry, looked up): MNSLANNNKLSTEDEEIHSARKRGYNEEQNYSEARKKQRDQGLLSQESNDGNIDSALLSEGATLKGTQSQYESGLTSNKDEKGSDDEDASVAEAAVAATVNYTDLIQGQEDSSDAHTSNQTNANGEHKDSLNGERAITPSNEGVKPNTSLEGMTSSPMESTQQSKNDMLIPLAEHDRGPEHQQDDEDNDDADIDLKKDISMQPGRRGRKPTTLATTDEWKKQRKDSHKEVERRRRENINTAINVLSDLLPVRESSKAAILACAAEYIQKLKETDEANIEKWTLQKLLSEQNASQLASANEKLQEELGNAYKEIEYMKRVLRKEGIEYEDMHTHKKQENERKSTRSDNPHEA
# Method: competition protein-binding microarray
# Form: double-stranded DNA, one strand shown
# Matrix: in vitro
# Concentration: 2 µM
# Notes: whole 60-bp probe, lowest competitor level
# With: Pho4 competitor, 0.05 µM
# Reading: higher = stronger binding
# Constant ends, left off below: … GTCTTGATTCGCTTGACGCTGCTG
Strand,fluorescence intensity [a.u.]
CGTCCTAGTGATTGCTTGGTGGGTGCCATGAGGAAG,74.6
TGCGCAACAACTTTTCACGTGCGCTTATGTCTAGAA,977
TGCGCAACAACTTGGAGTGTGGGTGTATGTCTAGAA,71.3
CCACACTGACCGAGTCACGTGTGTTTATTCTGTTTT,5230
AAAGCGGTAATTTGAACGGTGGGTGCAGATATCTAT,82.3
TATGCTTTTCTTTTGAACGTGCAAAGCGCAGAGGCA,92.7
CGGGGTTAAGTTTGTCACGAGACTTGCTTGCAGCAG,970
TAACGGCTATCCCATCACGTTCTCACCGAGGAGACC,255
GTCAACAACAACAACCTCGTGACAAATAGTTTGTAA,789
AAATTACTAAGTTTTCACGTGCTTTACCCCGTATGA,1680
CTTCTGTAAATTTGGCTGGTGGGTGGACGCGCCCCG,97.3
AAAGCGGTAATTTGTCACCCTACTTCACATATCTAT,74.6
GTCTTGTCTCATTGGACTGTGGGTGTCCCCACTTCA,77.5
CTGGCCCACTTCATGGGCGTGCTAATCAAGAAGTAC,85.6
AAGAACCCGATATCGCACGCTTCTCCAGGGGTCGGT,56.6
GGGCTCACTTTTAGACGCGTGTTCCATCGGCGTTCG,70.1
AAAGCGGTAATTTGTCACTGGACTTCACATATCTAT,114
GCAGAAGTAGCCAAAGATGTGACGCTACCGTTGTGA,65.9
GTATGAATGCCGCTGTTCGTGCCGATGTTCGTACAG,58.7

# Set 5
# Target: PABPC1L2, full length, GST fusion (mouse, UniProt A0ABA7IW68)
# Method: RNAcompete
# Form: RNA
# Matrix: in vitro
# Concentration: 20 nM
# Notes: 7-mer, probes averaged, single round
# Reference: mean of 7-mers
# Reading: higher = stronger binding
# Target sequence (chain): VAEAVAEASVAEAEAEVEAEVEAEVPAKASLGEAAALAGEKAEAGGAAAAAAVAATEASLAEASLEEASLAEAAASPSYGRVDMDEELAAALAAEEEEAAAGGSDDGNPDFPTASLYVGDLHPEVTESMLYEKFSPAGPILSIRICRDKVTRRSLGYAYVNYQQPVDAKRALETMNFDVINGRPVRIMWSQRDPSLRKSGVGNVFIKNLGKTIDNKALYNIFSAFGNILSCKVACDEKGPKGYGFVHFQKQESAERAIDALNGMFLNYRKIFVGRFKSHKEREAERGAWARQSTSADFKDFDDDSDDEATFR
Strand,7-mer Z-score
UUAUAAU,-0.11
ACGCCCG,-0.164
AACGCAU,-0.0736
CCUGCCG,-0.418
UUUGUUA,-0.358
ACCAGGA,0.102
CCUGAGG,-0.19
GAUGCAG,-0.0899
GCAUAAA,2.44
AUCUCCA,-0.353
AAGGACG,0.407
ACGAACU,0.095
AGCCAGA,0.0678
UCGCUUG,-0.458
GGCCCUU,-0.153
ACUACUC,-0.164
ACUGGGC,0.169
ACGCGAA,0.0225
GUGAUCU,-0.184
UGGUCAA,0.0134
ACUUGAA,0.0732
AGAUAUG,-0.202
CCGUGAA,0.0352
GUUUCUG,-0.389
AACUUAC,0.0551

# Some of these lines once more (set 3):
Variant,binding fitness
L31N,-1.62 natural log
M51G,-1.44 natural log
K36S,-1.6 natural log
V56H,-1.53 natural log
K36D,-1.13 natural log
L38R,-1.5 natural log
A40G,-1.46 natural log
L45M,-1.51 natural log
